Measured values collected from several papers.
Numbered parts are unrelated; each lists some results of a single study. Positions count from the first letter of the parent shown.

Set 1
Target: CCNE2, cyclin fold, Cln2 fusion (human)
Method: yeast growth competition, sequencing
Sample: yeast
Notes: strong parent motif
Relative to: not given
Reading: higher = stronger binding
Endpoint: normalised enrichment score
Starting sequence: PKN2 docking peptide (human); VSAVRKLDFSDTM
S2W: 2.81
F9L: 0.298
T12Q: 4.37
F9G: 0.431
K6G: 0.375
K6R: 5.46

Set 2
Target: RNA binding protein fox-1 homolog 2, RRM domain, GST-SBP tag (RBFOX2, Homo sapiens, UniProt O43251-10, residues 100-194)
Method: RNA Bind-n-Seq
Molecule type: RNA
Sample: in vitro
Concentration: 365 nM
Notes: natural RNA segment, single round, ends assumed
Relative to: no-protein control
Reading: higher = stronger binding
Endpoint: RBNS enrichment (R)
Shared flanks, not repeated: GGGAGUUCUACAGUCCGACGAUC … UGGAAUUCUCGGGUGCCAA
Target sequence (chain): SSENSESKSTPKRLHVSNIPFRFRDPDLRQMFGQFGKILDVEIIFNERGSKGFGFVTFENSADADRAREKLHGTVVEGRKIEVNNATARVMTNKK
UGCUCCUUACCAAAAAUCAGUCUUCUAGCAAAUAAAAAUAACUUAGAGCAUUAUUUAUUUAAAGAAUUUAUGUUUUCUAUAAAACCUUAUAACCAAGAACCUUCAGGAUG: 0.766
CUUGAAAAUCAGAUUCUAACUGGAUUUGUAUGCAACUAAGUAUUUUUCUGAACACCUAUGCAGGUCUUAUUUACAGUAGUUACUAAGGGAACACACAAAGAAUUACACAA: 0.561
UAGUUGAAAGACUACACAAAAAGCCACAAUCAUUGCCCGGCCUCCUGAGUCACCUUCUAUCUAUACUUUGCUUAAAAGCUAUCCCAGAUACUCCCCCUUGAGGAGCUCAU: 0.332
GAAGUAUUAAGGGAGGAAGUGCUGGUAGCUGCCCUGUGGGGAGACUCCCUAGGAAAGUAACGGGCACCAGGCUUCGUGACUUUCAUUCUCAUUUAUAAGUUAGACAUUCA: 0.508
AGGUGCAGCCCUAAGGGGUGGACUCCAGAUCUCCCUGCAAGAGACAGCUUGGCUUGGCUUUGGCUGUUGGGGAGGAGUCCCUGCCAUCCCGGUGAGCCUGGGGCUGUUGC: 0.296
CACUAUUUUCACCUCUAAAUAUUACGUACUCAGUAGUGCCCUGCUUCUAGGGCUCUGAAUACGGGCUUAAAGUCAUCUUGUCCUGCUGGAAUUUGCUGUGCAGAGCCAUA: 0.823
AAUCUCCCUCUAUUUUUUUAAAAUCACUAACAUUAUAUUGCAAUGAGAGAAAUUUUAAAAAGUCUCUAUUUAAAUUCUUUUUUUAAAUUUCUCUUCAGUUGGUGUGUUUC: 1.78
CCUGCUGUAGAAGGUCACUUGGCUCCAUUGCCUGCUUCCAACCAAUGGGCAGGAGAGAAGGCCUUUAUUUCUCGCCCACCCAUUCCUCCUGUACCAGCACCUCCGUUUUC: 1.29

Set 3
Target: Histone acetyltransferase KAT6A, winged helix 1, GST fusion (KAT6A, Homo sapiens, UniProt Q92794, residues 1-85)
Method: protein binding microarray
Molecule type: double-stranded DNA, one strand shown
Sample: in vitro
Concentration: not given
Notes: 8-mer, flanks averaged, mean of 2 arrays, mostly near background
Relative to: not given
Reading: higher = stronger binding
Endpoint: E-score
Target sequence (chain): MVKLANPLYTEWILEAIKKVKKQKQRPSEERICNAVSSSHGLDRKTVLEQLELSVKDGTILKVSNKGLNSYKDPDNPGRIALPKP
ACACGTGA: -0.0706
ACAATCCT: -0.0967
AGGTCGGC: 0.187
CAGATCTG: -0.226
CGCTACCC: 0.234
ACGTGTAC: -0.113
CCACGGCG: 0.401
CGCAGCAG: 0.0889
CATGACCC: 0.0609
AGTTTGAT: -0.166
TCGCGTCA: 0.0721
AAAAGATC: -0.162
GAGTACAC: -0.00345
ACAGAGAC: -0.0392
GCATCAAA: -0.0673

Set 4
Substance: PhoQ, residues 284 288 289 292 302 303 GANMMA
Method: Sort-seq
Measured: YFP reporter
Sample: E. coli
Notes: PhoQ-PhoP variant library
Added: 10 µM Mg2+
Relative to: high Mg2+ state
Reading: higher = stronger signaling
Endpoint: fold induction
PhoP, residues 12 14 15 18 19 TQCLL (Escherichia coli, UniProt P23836): 1.36
PhoP, residues 12 14 15 18 19 VHTVL (Escherichia coli, UniProt P23836): 8.99
PhoP, residues 12 14 15 18 19 ICWRQ (Escherichia coli, UniProt P23836): 0.977

Excerpt of the above (set 1):
F9L: 0.298
S2W: 2.81
